# Measurements gathered from unrelated publications.
# Every numbered part comes from another study and shows a few of its results, in no order. Changes are numbered by the printed parent chain.

# Study 1
# Target: CCNB3, cyclin fold, Cln2 fusion (human)
# Method: yeast growth competition, sequencing
# Medium: yeast
# Notes: weak parent motif
# Baseline: not given
# Reading: higher = stronger binding
# Starting sequence: RB1 docking peptide (human); PKPLKKLRFDIEG
Variant,normalised enrichment score
R8N,0.695
K6R,0.778
K6V,0.501
P1Y,0.01

# Study 2
# Target: RNA binding protein fox-1 homolog 2, RRM domain, GST-SBP tag (RBFOX2, Homo sapiens, UniProt O43251-10, residues 100-194)
# Method: RNA Bind-n-Seq
# Form: RNA
# Medium: in vitro
# Tested at: 365 nM
# Notes: natural RNA segment, single round, ends assumed
# Baseline: no-protein control
# Reading: higher = stronger binding
# Target sequence (chain): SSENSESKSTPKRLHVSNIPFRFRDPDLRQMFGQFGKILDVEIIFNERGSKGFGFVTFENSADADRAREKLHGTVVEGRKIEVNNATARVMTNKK
Sequence,RBNS enrichment (R)
GGGAGUUCUACAGUCCGACGAUCGCAGUGCCCCUUCAGAGCUGGCUGGGAGCUUGGCUCAGCCACCUCUUAGGGUGCCUGCCUCUGCCAUGGCAUCCUGUCCCUUUCCCAUGUGCUCGGUGUUCAGUGGUGUAUGGAAUUCUCGGGUGCCAA,0.784
GGGAGUUCUACAGUCCGACGAUCCCUACCCUUCCUGCACUCCCUUCCCCAGUUCUGCUCAGCUCAGCUGUGGGAGGUAAACUUAAGCUGAAGGUGGCGGACUCUACUGUCGCAGGCCACAGCAGACAGGGUGGUGGAAUUCUCGGGUGCCAA,0.236
GGGAGUUCUACAGUCCGACGAUCCCUGAGAGGUCAAGGUUGCAAUGAGCCAUAAUCAUACCACUGCACUCCAGCCUGGGCAACAGAGUGAGGCCCUGUCUCAAACACAUAAAAGGCAGUGGCCCACGCCUGUAUGGAAUUCUCGGGUGCCAA,0.308
GGGAGUUCUACAGUCCGACGAUCCACAGACCGAUGCCCUUCUUACCCCAAGUUCCCAUAAACACUUGCAUGCAGAAGCACACAGGACACAGGGACCAUGUGGGAAGCAUGCUCAGCCUAGCAGAGCUGAAAGGUGGAAUUCUCGGGUGCCAA,5.1

# Study 3
# Target: Prothrombin, mature alpha-thrombin (F2, Homo sapiens, UniProt P00734)
# Method: aptamer microarray, sandwich
# Form: DNA with 2'F-ANA
# Medium: in vitro
# Tested at: 200 nM
# Notes: whole 15-mer aptamer, many near background
# With: Cy3 exosite-II aptamer, 400 nM
# Reading: higher = stronger binding
# Sequence: GGTTGGTGTGGTTGG
Modification,mean fluorescence intensity [a.u.]
2'F-ANA at 4 5 9 10 12 13 14 15,45.6
2'F-ANA at 1 5 7 9 11 14 15,47.1
2'F-ANA at 1 4 11 14 15,55.4
2'F-ANA at 2 5 6 9 11 14 15,49.2
2'F-ANA at 1 2 7 10 11 13,51.1

# Mixed results
Molecule,target,test,system,conditions,how to read,endpoint,value
"PhoQ, residues 284 288 289 292 302 303 SACGEM","PhoP, residues 12 14 15 18 19 NNFVT (Escherichia coli, UniProt P23836)","Sort-seq, item: YFP reporter",E. coli,"PhoQ-PhoP variant library, with: 10 µM Mg2+","baseline: high Mg2+ state, higher = stronger signaling",fold induction,0.933

# For quick reference, copied from above (study 3):
Modification,mean fluorescence intensity [a.u.]
2'F-ANA at 4 5 9 10 12 13 14 15,45.6
2'F-ANA at 1 5 7 9 11 14 15,47.1
